{"data": "Results from different studies", "cell line": "A549/ATCC", "note": "Protocols differ between the studies behind these lines."}
{"SMILES": "Cn1cncc1C1=CN(c2ncnc3[nH]cnc23)CCS1", "notes": "lung cancer cell line", "measurement": "GI50", "result": "29.5 µM"}
{"SMILES": "S=C([S][Au-][P+](CCCCCC[P+]([Au-][S]C(=S)n1cccn1)(c1ccccc1)c1ccccc1)(c1ccccc1)c1ccccc1)n1cccn1", "observed": "cell growth", "method": "NCI-60 screen", "notes": "non-small cell lung cancer", "measurement": "GI50", "result": "0.382 µM"}
{"SMILES": "O=C(Nc1nnc2n3c(=S)[nH][nH]c3nc(-c3ccc(Cl)cc3)c1-2)c1ccccc1", "method": "NCI60 SRB", "tested at": "10 µM", "measurement": "growth percent", "result": "96.5%"}
{"SMILES": "CCCc1n(Cc2ccc3ccccc3n2)cc[n+]1Cc1ccc2ccccc2c1", "method": "NCI60 five-dose", "measurement": "TGI", "result": "11.8 µM"}
{"SMILES": "O=C(Nc1nnc2n3c(nc(-c4ccc(Cl)cc4)c1-2)SCC3=O)c1ccccc1", "method": "NCI60 SRB", "tested at": "10 µM", "measurement": "growth percent", "result": "108%"}
{"SMILES": "c1ccc2cc(Cn3cc[n+](Cc4ccc5ccccc5c4)c3)ccc2c1", "method": "NCI60 five-dose", "measurement": "TGI", "result": "22.9 µM"}
{"SMILES": "COc1ccc(-c2ccc(-c3ccc(C(=N)N)nc3)s2)cc1", "method": "NCI five-dose screen", "measurement": "GI50", "result": "1.84 µM"}
{"SMILES": "CCc1n(Cc2ccc3ccccc3n2)cc[n+]1Cc1ccc2ccccc2n1", "method": "NCI60 five-dose", "measurement": "TGI", "result": "> 100 µM"}
{"SMILES": "O=C(Nc1nnc2n3c(Cc4ccccc4)n[nH]c3nc(-c3ccc(Cl)cc3)c1-2)c1ccccc1", "method": "NCI60 SRB", "tested at": "10 µM", "measurement": "growth percent", "result": "103%"}
{"SMILES": "CCc1n(Cc2ccc3ccccc3n2)cc[n+]1Cc1ccc2ccccc2c1", "method": "NCI60 five-dose", "measurement": "TGI", "result": "14.1 µM"}
{"SMILES": "Cc1cc(-c2ccccc2)n(-c2nc(-c3ccc(Cl)cc3)c3c(NC(=O)c4ccccc4)nnc-3[nH]2)n1", "method": "NCI60 SRB", "tested at": "10 µM", "measurement": "growth percent", "result": "93.1%"}
{"SMILES": "Cc1cc(C)n(C(=S)[S][Au][PH](CCCCCC[PH]([Au][S]C(=S)n2nc(C)cc2C)(c2ccccc2)c2ccccc2)(c2ccccc2)c2ccccc2)n1", "observed": "cell growth", "method": "NCI-60 screen", "notes": "non-small cell lung cancer", "measurement": "log TGI", "result": "> -4 log10 M"}
{"note": "Excerpt of the above:"}
{"SMILES": "CCc1n(Cc2ccc3ccccc3n2)cc[n+]1Cc1ccc2ccccc2c1", "method": "NCI60 five-dose", "measurement": "TGI", "result": "14.1 µM"}
{"SMILES": "Cc1cc(C)n(C(=S)[S][Au][PH](CCCCCC[PH]([Au][S]C(=S)n2nc(C)cc2C)(c2ccccc2)c2ccccc2)(c2ccccc2)c2ccccc2)n1", "observed": "cell growth", "method": "NCI-60 screen", "notes": "non-small cell lung cancer", "measurement": "log TGI", "result": "> -4 log10 M"}
